Measured values of several laboratories.
A part holds a random share of what one study measured. Positions count from the first letter of the parent shown.

Study 1 — method: universal PBM; form: double-stranded DNA, one strand shown; sample: in vitro; tested at: not given; reading: higher = stronger binding; quantity: E-score
Target: Sal-like protein 4, full length isoform B (SALL4, Homo sapiens, UniProt Q9UJQ4-2, residues 1-616)
Setting: 8-mer, flanks averaged, mean of replicates
Residues (chain): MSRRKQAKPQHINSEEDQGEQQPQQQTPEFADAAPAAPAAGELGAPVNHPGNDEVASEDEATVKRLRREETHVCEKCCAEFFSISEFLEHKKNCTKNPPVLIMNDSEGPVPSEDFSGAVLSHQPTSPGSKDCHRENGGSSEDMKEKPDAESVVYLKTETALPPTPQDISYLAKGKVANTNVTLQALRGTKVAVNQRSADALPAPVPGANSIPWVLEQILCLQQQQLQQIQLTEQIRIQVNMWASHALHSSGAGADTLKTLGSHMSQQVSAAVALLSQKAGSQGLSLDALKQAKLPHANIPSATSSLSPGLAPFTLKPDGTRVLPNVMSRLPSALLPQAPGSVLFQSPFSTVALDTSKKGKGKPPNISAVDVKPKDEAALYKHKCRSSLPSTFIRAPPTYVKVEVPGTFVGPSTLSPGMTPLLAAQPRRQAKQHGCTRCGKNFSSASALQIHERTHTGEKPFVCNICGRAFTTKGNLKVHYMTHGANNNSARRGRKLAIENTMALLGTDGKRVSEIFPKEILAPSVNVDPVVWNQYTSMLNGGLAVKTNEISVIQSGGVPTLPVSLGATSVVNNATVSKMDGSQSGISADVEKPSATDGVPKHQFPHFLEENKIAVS
GGGAAGTA: 0.045
AGGAAACT: -0.0366
AAACCCCC: -0.167
CGCTTCGC: -0.155
GGGGGCGA: -0.244
CCGAGGCG: -0.325
CATTCCAA: 0.0435
TCTGCGCA: -0.205
GATGTTCA: -0.0849
CACGCTCA: -0.0845
AGGGAGTC: -0.136
ATAGGTCC: 0.0672
GGCTCCGA: -0.307
GAACCCGA: -0.286
GGGGCCAA: -0.269
CAGTCAAC: -0.181
CAGCGTCC: -0.244
TGCGAGAA: -0.142
CAGGATAA: 0.097
CTAGCTTA: 0.106
CCTAGTCA: -0.0457
CCAGTGTC: -0.161

Study 2 — target: CCNB2, cyclin fold, Cln2 fusion (human); method: yeast growth competition, sequencing; sample: yeast; setting: weak parent motif; baseline: not given; reading: higher = stronger binding; quantity: normalised enrichment score
Parent: SAMHD1 docking peptide (human); ASKSRVQLFKDDP; partner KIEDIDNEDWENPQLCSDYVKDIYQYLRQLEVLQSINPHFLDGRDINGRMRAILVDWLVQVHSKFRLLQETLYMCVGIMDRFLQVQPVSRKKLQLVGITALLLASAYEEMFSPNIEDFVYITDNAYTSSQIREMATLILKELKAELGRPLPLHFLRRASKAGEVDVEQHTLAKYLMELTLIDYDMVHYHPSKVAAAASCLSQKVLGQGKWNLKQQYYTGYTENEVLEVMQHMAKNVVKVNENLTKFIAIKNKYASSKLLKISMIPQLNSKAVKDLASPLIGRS
ASKSRVQLFKNDP [D11N]: 0.309
ASKSRVQLFKDTP [D12T]: 0.133
ASKSRVQGFKDDP [L8G]: 0.391
ASKSRVSLFKDDP [Q7S]: 0.0381
ASKSRVQIFKDDP [L8I]: -0.0398
ASKSRVQLFADDP [K10A]: 0.0554
ASKSRPQLFKDDP [V6P]: -0.419
ASISRVQLFKDDP [K3I]: 0.105
ANKSRVQLFKDDP [S2N]: 0.364
ASKERVQLFKDDP [S4E]: -0.491
ASCSRVQLFKDDP [K3C]: 0.069
ASKSTVQLFKDDP [R5T]: 0.128
ASKSRDQLFKDDP [V6D]: -0.241
ASKSRVQLNKDDP [F9N]: 0.393
ASKHRVQLFKDDP [S4H]: 0.202
ASKSRVQLFKQDP [D11Q]: -0.14
ASKSRVQLLKDDP [F9L]: 0.613
ASKSRVQLFKEDP [D11E]: 0.267
ACKSRVQLFKDDP [S2C]: 0.0127
ASKSRVQLFKDHP [D12H]: 0.209
ASKSRVQLPKDDP [F9P]: 0.306

Study 3 — method: aptamer microarray, sandwich; form: DNA with 2'F-ANA; sample: in vitro; tested at: 200 nM; added: Cy3 exosite-II aptamer, 400 nM; reading: higher = stronger binding; quantity: mean fluorescence intensity; sequence: GGTTGGTGTGGTTGG
Target: Prothrombin, mature alpha-thrombin (F2, Homo sapiens, UniProt P00734)
Setting: whole 15-mer aptamer, many near background
2'F-ANA at 1 3 4 6 14: 78.7 a.u.
2'F-ANA at 3 4 5 6 7 8 11 13: 69.9 a.u.
2'F-ANA at 8 12 13 15: 677 a.u.
2'F-ANA at 4 7 8 10 11 14: 60.1 a.u.
2'F-ANA at 1 2 5 6 7 11 14 15: 56.4 a.u.
2'F-ANA at 2 3 4 6 9 11: 488 a.u.
2'F-ANA at 1 2 4 5 8 9 10 13 15: 49.3 a.u.
2'F-ANA at 1 6 9 10 11 12 14 15: 58.8 a.u.
2'F-ANA at 1 4 9 11 12: 203 a.u.
2'F-ANA at 2 3 7 9 10 12 13 14: 349 a.u.
2'F-ANA at 1 2 4 6 7 8 9 11 13: 73.8 a.u.
2'F-ANA at 1 2 3 5 6 12 13 15: 81.8 a.u.
2'F-ANA at 2 3 4 5 6 7 11 12 14: 124 a.u.
2'F-ANA at 4 6 10 11 13 15: 61.4 a.u.
2'F-ANA at 1 4 6 7 8 9 12 13: 182 a.u.
2'F-ANA at 6 8 9 10 14: 110 a.u.
2'F-ANA at 1 2 5 10 12 13 14 15: 45.1 a.u.
2'F-ANA at 1 2 3 4 6 9 10 11 13 14: 127 a.u.

Study 4 — method: protein binding microarray; form: double-stranded DNA, one strand shown; sample: in vitro; tested at: not given; baseline: not given; reading: higher = stronger binding; quantity: E-score
Target: Histone acetyltransferase KAT6A, winged helix 1, GST fusion (KAT6A, Homo sapiens, UniProt Q92794, residues 1-85)
Setting: 8-mer, flanks averaged, mean of 2 arrays, mostly near background
Construct (chain): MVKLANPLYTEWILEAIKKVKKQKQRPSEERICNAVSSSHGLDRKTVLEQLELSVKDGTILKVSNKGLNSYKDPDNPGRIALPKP
GCCAGCGC: 0.313
AGCAGCAG: -0.223
CTGTTAAC: 0.0473
GCAAAAAC: 0.0035
CCCCCAGA: -0.362
ACCCTTAA: -0.0929
GGGCTTAA: -0.00674
ACAAGCGG: 0.169
CTACTCGA: 0.0186
TCGCTGAA: 0.00247
CACGTCCG: 0.111
GCTAGAGC: 0.0512
ATTTTGAG: -0.159
GGTGCGGA: 0.0183
CCTTCCCA: -0.225
AGCATATC: -0.0388
CTAGTGCA: 0.0366
AGAGGTCC: 0.0842
CCATACGC: 0.0566
GCCCTGAC: -0.0586
GCCTCGCA: -0.0342
GTAACCCA: 0.0337
GACGGCCC: 0.395
GACAGATC: -0.129

Study 5 — method: RNA Bind-n-Seq; form: RNA; sample: in vitro; tested at: not given; baseline: input RNA pool; reading: higher = stronger binding; quantity: bound/input enrichment
Target: RING finger protein unkempt homolog, zinc fingers 1-6, GST-SBP tag (UNK, Homo sapiens, UniProt Q9C0B0, residues 30-357)
Sequence of UniProt Q9C0B0 (30-357, looked up): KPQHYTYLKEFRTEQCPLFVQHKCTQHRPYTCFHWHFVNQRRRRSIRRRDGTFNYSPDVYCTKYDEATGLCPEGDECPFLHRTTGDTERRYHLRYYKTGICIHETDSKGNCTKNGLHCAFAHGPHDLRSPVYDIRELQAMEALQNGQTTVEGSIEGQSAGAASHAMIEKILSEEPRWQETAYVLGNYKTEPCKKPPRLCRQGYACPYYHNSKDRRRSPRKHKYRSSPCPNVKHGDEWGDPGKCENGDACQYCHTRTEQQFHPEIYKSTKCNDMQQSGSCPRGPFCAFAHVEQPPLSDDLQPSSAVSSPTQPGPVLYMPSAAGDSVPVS
Setting: RNA with constant flanks, human and mouse sites, ends assumed
Shared flanks, not repeated: GGGAGUUCUACAGUCCGACGAUC … CAACAGAGGAUUGAGCAUCA
UUUGAGCUGAUGACCAGCCUCCACACCAAGCUAGAAGGCUUCCACACUCAAAUCUCUAAGUAUUUCUCUGAGCGUGGUGAUGCAGUGACUAAAGCAGCCAAGCAGCCCCAUGUGGGUGAU: 0.204 ratio
UGAGCUGUCUGCCCUUCCGGAAACCCAACCUGCAAUCAACUGCAAAUCAAAUUCUUCACAUUCCAGCUACAGUCUUUCUUUCCCCAUUGAAUCUCAGUCCCUGGCCAUGUGGUCAAGGUG: 0.221 ratio
GUUCGUUUUCACUGCAGGACCAGGCACGAAAGUUAAAACAAAAUGAAGAUUUUUUCUGAAUCUCAUAAAACAGUGUUUGUUGUGGAUCACUGCCCUUAUAUGGCAGAAUCUUGCAGGCAG: 0.255 ratio
GCGGAGGAGAGUUCAGAUUGGUUUUAUGGUUUCCUCUCAUUUCUCUAUGAUAUAAUGACUCCUUUUGAAAUGCUAGAAGAAGAGGAAGAAGAAAGCGAAACUGCAGAUGGUGUUGAUGGU: 0.576 ratio
CCUAAAUUUCCCAAUUUUCUGUCCAAAAUAUUUGUGAUUUACUUGUAUAUAAGCCUUCUCAUUUGCCAUGUGCUGUGAUCUUACAAGUUAGAUGUUACUAUACCUACCAUUUAUUCAGCU: 5.5 ratio
GACAGACACAUACCUCUUGCUCUACCACGACAAAAUAGUACGGGGCAGUCCCAAAUCCGAAAACUGGACCAUUCUGGGUUAGGUGCCCGAGCCAAAGCACCCCCAUCUCUGCCACACAGU: 0.274 ratio
GAGUAUUUAUAAACCAGCGCAGGAAAGCAUCUCUCAUCUGCCAGUGCUAACCCGCACGAGCAGCGGAAGACACUUGUAGACGGCAAGAGCUGAUGUAAAGCUUCUACCAUGACUGUGUCA: 0.121 ratio
GCGGCAGAAUCAUGGAGGACAUAAUGCAGCUCCCCAAAGCGCGCGUCAACGCCAGCAUGUUACCACAGUAUAUCGACCGGCCCGUGUGCUUCGUGGGGAAGCUGGAAAAGAUUCAUCCCA: 0.107 ratio
GUGAGUAAGUAGUUGGGUAUAAGAUCUGAACUUUUCAUCUGCAGAGGCAAGAAAAAUAUUUGACAUUGUGACUUGACUGUGGAAGAUGAUGGUUGCAUGUUUCUAGUUUGUAUAUGUUUC: 0.583 ratio
ACUGUCCAGGAGGUUCACCCAGGAGAACCUCCAUUCGACCUAGAGCUUUUCUACGUUAAGUAUAGAAAUUUUUCCUAUUUACAUUGUAAAUGGGCCACAAUGGAAGAACUGGAAAAGGAU: 0.549 ratio
GAGAAUGUUAUUUAAAGUUGUAUUAUAAUUGCAACCUCCACUAAUUAUUCAGUACUGUAGCAGCAAAGUAUUAUUUGUAAGAAUUUGGUUAUUUUUAUACUUAUAUCCACUCUAAGUCUG: 0.235 ratio
